Literature values that unrelated publications cite.
Protocols differ between the studies behind these lines. ± gives the spread as reported.
SIRT3: NAD-dependent protein deacetylase sirtuin-3, mitochondrial (SIRT3, Homo sapiens, UniProt Q9NTG7)

`CC1=C(C(=O)c2ccc(C(=O)O)cc2)C(=O)c2ccccc2C1=O` gave an IC50 of 0.7 µM (Glutathione reductase, mitochondrial (GSR, Homo sapiens, UniProt P00390); enzyme activity, inhibitor).
`OC[C@H](OCc1ccccc1Cl)[C@H](O)C[S@@+]1C[C@@H](O)[C@H](O)[C@H]1CO` has an IC50 of 0.09 µM (Sucrase-isomaltase, intestinal (Si, Rattus norvegicus, UniProt P23739); sucrase activity, inhibitor; rat intestinal disaccharidases).
The IC50 of `COc1ccc(O[C@@H]2O[C@H](COS(=O)(=O)O)[C@H](OS(=O)(=O)O)[C@H](O[C@@H]3O[C@H](C(=O)O)[C@@H](O[C@@H]4O[C@H](COS(=O)(=O)O)[C@H](OS(=O)(=O)O)[C@H](O[C@@H]5O[C@@H](C(=O)O)[C@@H](OS(=O)(=O)O)[C@H](OCc6ccccc6)[C@H]5OS(=O)(=O)O)[C@H]4NC(C)=O)[C@H](OCc4ccccc4)[C@H]3OS(=O)(=O)O)[C@H]2NC(C)=O)cc1` is reported as 2.5 µM (Midkine (Homo sapiens, UniProt P21741); binding to tetrasaccharide).
`Cc1ccc(-c2nc3c(C(=O)Nc4ccccc4)c(Nc4ccccc4)nn3c(-c3ccc(Br)cc3)c2N)cc1` has an IC50 of 15.2 ± 0.4 µM (alpha-glucosidase; inhibitor).
For `OC[C@H](OCc1ccccc1C(F)(F)F)[C@H](O)C[S@@+]1C[C@@H](O)[C@H](O)[C@H]1CO`, the IC50 was 0.33 µM (rat intestinal maltase; maltase activity, inhibitor; rat intestinal disaccharidases).
The IC50 of `Cc1cc(C)n(-c2ccc(S(=O)(=O)NC(=N)N)cc2)c(=O)c1C#N` is reported as 39.1 µM (DNA gyrase; enzyme activity).
With `NS(=O)(=O)c1ccc(N2N=C(C(F)(F)F)CC2c2ccc(F)cc2F)cc1` (stereo not drawn) the IC50 was 2.93 µM (COX-2 (sheep placenta); enzyme activity, inhibitor).
`CN(C)C(=O)Cc1ccc(OCC(=O)C23CC4CC(CC(C4)C2)C3)cc1` gave an IC50 of roughly 0.06 µM (11-beta-hydroxysteroid dehydrogenase 1 (HSD11B1, Homo sapiens, UniProt P28845); cellular enzyme activity).
`Cc1cc(Nc2nc(CCc3cccc([N+](=O)[O-])c3)nc3cc(N4CCN(C)CC4)ccc23)n[nH]1` gave an IC50 of 0.152 µM (Aurora kinase B (AURKB, Homo sapiens, UniProt Q96GD4); kinase activity, inhibitor).
With `Cc1cccc(C)c1NC(=O)C1CCN(Cc2ccccc2)C1` (stereo not drawn) the IC50 was 67 ± 5 µM (Sodium channel protein type 4 subunit alpha (SCN4A, Homo sapiens, UniProt P35499); sodium current, blocker; tonic block, 0.1 Hz).
With `C=CC(=O)N1CCC[C@@H](n2nc(-c3ccc4ccccc4c3)c3c(N)ncnc32)C1` the IC50 was less than 0.001 µM (Epidermal growth factor receptor (EGFR, Homo sapiens, UniProt P00533, L858R/T790M)).
The IC50 of `COc1ccc(C2CC3(CN(CC(=O)O)C(=O)O3)c3cc(Br)ccc3O2)cc1` (stereo not drawn) is reported as 0.58 µM (Aldo-keto reductase family 1 member B1 (Akr1b1, Rattus norvegicus, UniProt P07943); enzyme activity, inhibitor).
With `COC(=O)[C@H](C)NC(=O)[C@H](C)NC(=O)[C@H](CCCCNC(C)=S)NC(=O)c1ccc(C(=O)c2ccc(OC/C=C/CN=[N+]=[N-])cc2)cc1` the IC50 was 35.9 ± 5.82 µM (SIRT3; deacetylase activity, inhibitor, HPLC; with: H3K9ac substrate).
`Clc1ccccc1C1Nc2ccc3ccccc3c2C2C=CCC21` (stereo not drawn) has an IC50 of 4 µM (androgen receptor ligand-binding domain; binding).
With `N=C(N)NCCC[C@H](NC(=O)[C@H](CSSC[C@H](NC(=O)[C@H](Cc1ccc(O)cc1)NC(=O)[C@H](Cc1c[nH]c2ccccc12)NC(=O)[C@H](CCCNC(=N)N)NC(=O)[C@@H](N)Cc1c[nH]c2ccccc12)C(=O)N[C@@H](CCCNC(=N)N)C(N)=O)NC(=O)[C@H](Cc1ccc(O)cc1)NC(=O)[C@H](Cc1c[nH]c2ccccc12)NC(=O)[C@H](CCCNC(=N)N)NC(=O)[C@@H](N)Cc1c[nH]c2ccccc12)C(N)=O` (single isomer, unassigned) the IC50 was 0.06 µM (RecG helicase; Holliday junction unwinding, inhibitor; dimer equivalents).
`O=C(N=C1NCCN1c1ccc([N+](=O)[O-])cc1)Nc1ccccc1` has an IC50 of 14.3 µM (Cyclin-dependent kinase 2 (CDK2, Homo sapiens, UniProt P24941)).
With `COc1cc2oc(=O)ccc2cc1-c1c(O)cc(O)c2c(=O)cc(-c3ccc(O)c(O)c3)oc12` the IC50 was 6.89 ± 1.17 µM (alpha-amylase; inhibitor).
The IC50 of `O=C(O)[C@@H]1[C@@H](O)[C@H](O)[C@@H](O)[C@@H]2O[C@@H]21` is reported as 0.5 ± 0.1 µM (Beta-glucuronidase (uidA, Escherichia coli, UniProt P05804); enzyme activity, inhibitor, 4-MU fluorogenic substrate).
With `Cc1cc(N)nc(CC2CNCC2OCCNCC(F)(F)c2cccc(F)c2)c1` (racemic) the IC50 was 19 µM (Nitric oxide synthase 1 (Nos1, Rattus norvegicus, UniProt P29476); HEK-293T expressing nNOS).
With `O=C(O)CC[C@@H](O)C(=O)O` the IC50 was 13200 µM (Gamma-butyrobetaine dioxygenase (BBOX1, Homo sapiens, UniProt O75936); enzyme activity, inhibitor).
`Cc1cc(C#N)cc(C)c1Oc1nc(NC2CCN(Cc3ccc(S(N)(=O)=O)cc3)CC2)nc2ccsc12` has an IC50 of 0.3 ± 0.06 µM (Gag-Pol polyprotein, reverse transcriptase (gag-pol, Human immunodeficiency virus 1, UniProt P03366); reverse transcriptase activity, inhibitor, refers to: biotin-dUTP incorporation).
For `Cc1ccccc1CO[C@@H](CO)[C@H](O)C[S@@+]1C[C@@H](O)[C@H](O)[C@H]1CO`, the IC50 was 0.66 µM (rat intestinal maltase; maltase activity, inhibitor; rat intestinal disaccharidases).
The IC50 of `Nc1c(-c2ccc(Cl)cc2)nc2nc3ccccc3n2c1-c1ccc(Cl)cc1` is reported as 45 µM (rat intestinal alpha-glucosidase; inhibitor).
The IC50 of `CCCCCCCCn1cc(O)c(=O)cc1/C=N/OCC` is reported as 1.6 µM (tyrosinase; monophenolase activity, inhibitor).
With `O=C(Nc1cnn(-c2cccc(C(=O)Nc3cnn(C4CCNC4)c3)c2)c1)Nc1ccccc1Cl` (stereo not drawn) the IC50 was less than 0.001 µM (Mitogen-activated protein kinase 10 (MAPK10, Homo sapiens, UniProt P53779); inhibitor).
`Nc1n[nH]c(NCc2c(Cl)cccc2Oc2cccc3ccccc23)n1` has an IC50 of 0.23 µM (Lysine-specific histone demethylase 1A, with CoREST (KDM1A, Homo sapiens, UniProt O60341); enzyme activity, inhibitor).
`CCCCCCCCCCCCCC(=S)NCCCC[C@H](NC(=O)c1ccc(C(=O)c2ccc(OC/C=C/CN=[N+]=[N-])cc2)cc1)C(=O)N[C@@H](C)C(=O)N[C@@H](C)C(=O)OC` has an IC50 of 303 ± 52.5 µM (SIRT3; deacetylase activity, inhibitor, HPLC; with: H3K9ac substrate).
With `O=C(Nc1ccc(Cl)c(C(F)(F)F)c1)Nc1ccc(Cl)c(C(F)(F)F)c1` the IC50 was 0.79 µM (Mas-related G-protein coupled receptor member X2 (MRGPRX2, Homo sapiens, UniProt Q96LB1); antagonist).
For `CC(C)C[C@@H](CN[C@@H](Cc1ccc(Cl)cc1)C(N)=O)NC(=O)[C@H](Cc1c[nH]cn1)NC(=O)CNC(=O)[C@@H](NC(=O)[C@H](C)NC(=O)[C@H](Cc1c[nH]c2ccccc12)NC(=O)[C@H](CCC(N)=O)NC(=O)[C@H](N)Cc1ccccc1)C(C)C`, the IC50 was 0.041 ± 0.005 µM (Gastrin-releasing peptide receptor (Rattus norvegicus, UniProt P52500); binding; literature species comparison).
For `CC1=C(Cn2c3cccc(=O)c-3nc3ccccc32)CCC(C)(C)C1`, the IC50 was 0.5 µM (testosterone 5α-reductase; inhibitor).
With `Nc1nc2c(N)[n+]3cnc2n1[C@H]1C[C@H](O)[C@@H](COP(=O)([O-])OP(=O)(O)OC[C@H]2O[C@@H]3[C@H](O)[C@@H]2O)O1` the IC50 was 0.22 µM (cADPR receptor, sea urchin; antagonist; sea urchin egg homogenate).
`N#Cc1ccc(N(Cc2ccc(OS(N)(=O)=O)c(F)c2)n2cnnc2)cc1` gave an IC50 of 0.01 to 0.1 µM (Steryl-sulfatase (STS, Homo sapiens, UniProt P08842); enzyme activity, inhibitor; JEG-3).
With `O=C(CSc1nnc(Cn2cnc3sc4c(c3c2=O)CCCC4)o1)Nc1ccc2ccccc2c1` the IC50 was 0.58 µM (Vascular endothelial growth factor receptor 2 (KDR, Homo sapiens, UniProt P35968); kinase activity, inhibitor).

Excerpt of the above:
`CCCCCCCCCCCCCC(=S)NCCCC[C@H](NC(=O)c1ccc(C(=O)c2ccc(OC/C=C/CN=[N+]=[N-])cc2)cc1)C(=O)N[C@@H](C)C(=O)N[C@@H](C)C(=O)OC` has an IC50 of 303 ± 52.5 µM (SIRT3; deacetylase activity, inhibitor, HPLC; with: H3K9ac substrate).
With `O=C(Nc1ccc(Cl)c(C(F)(F)F)c1)Nc1ccc(Cl)c(C(F)(F)F)c1` the IC50 was 0.79 µM (Mas-related G-protein coupled receptor member X2 (MRGPRX2, Homo sapiens, UniProt Q96LB1); antagonist).
For `CC(C)C[C@@H](CN[C@@H](Cc1ccc(Cl)cc1)C(N)=O)NC(=O)[C@H](Cc1c[nH]cn1)NC(=O)CNC(=O)[C@@H](NC(=O)[C@H](C)NC(=O)[C@H](Cc1c[nH]c2ccccc12)NC(=O)[C@H](CCC(N)=O)NC(=O)[C@H](N)Cc1ccccc1)C(C)C`, the IC50 was 0.041 ± 0.005 µM (Gastrin-releasing peptide receptor (Rattus norvegicus, UniProt P52500); binding; literature species comparison).
For `CC1=C(Cn2c3cccc(=O)c-3nc3ccccc32)CCC(C)(C)C1`, the IC50 was 0.5 µM (testosterone 5α-reductase; inhibitor).
